Assay results from different studies.
Each line is one published result; not all experiments were run side by side. “And” joins repeats or separate records; there may be more than shown. Numbers after ± are the reported error.

`COc1ccc(CNc2ccc3c(c2)S(=O)(=O)C=C3)cc1` gave a haemoglobin of 167 g/L (male C57BL/6 mice, blood; intraperitoneal, 10 mg/kg, day 8, group average).
For `CCCCCCCCCCCCCCCC(=O)NCCCC[C@H](NC(=O)[C@H](CCC(=O)O)NC(=O)[C@H](Cc1ccc(O)cc1)NC(=O)[C@H](CCC(=O)O)NC(=O)COCC(=O)NCCCOCCOCCOCCCNC(=O)[C@H](Cc1ccccc1)NC(=O)[C@H](CC(N)=O)NC(=O)[C@H](Cc1c[nH]cn1)NC(=O)[C@@H](NC(=O)[C@H](CC(=O)O)NC(=O)[C@H](CCC(N)=O)NC(=O)[C@H](CC(C)C)NC(=O)[C@H](CCCCN)NC(=O)[C@H](CCCCN)NC(=O)[C@H](CCCNC(=N)N)NC(=O)[C@H](CC(C)C)NC(=O)[C@H](Cc1c[nH]c2ccccc12)NC(=O)[C@H](CCC(=O)O)NC(=O)[C@@H](NC(=O)[C@H](CCCNC(=N)N)NC(=O)[C@H](CCC(=O)O)NC(=O)[C@H](CCSC)NC(=O)[C@H](CO)NC(=O)[C@H](CC(N)=O)NC(=O)[C@H](CC(C)C)NC(=O)[C@H](Cc1c[nH]cn1)NC(=O)[C@H](CCCCN)NC(=O)CNC(=O)[C@H](CC(C)C)NC(=O)[C@H](CC(N)=O)NC(=O)[C@H](Cc1c[nH]cn1)NC(=O)[C@H](CCSC)NC(=O)[C@H](CC(C)C)NC(=O)[C@H](CCC(N)=O)NC(=O)[C@@H](NC(=O)[C@H](CCC(=O)O)NC(=O)[C@H](CO)NC(=O)[C@@H](NC(=O)[C@@H](N)CO)C(C)C)[C@@H](C)CC)C(C)C)C(C)C)C(=O)N[C@@H](CCC(=O)O)C(=O)N[C@@H](Cc1ccc(O)cc1)C(=O)N[C@@H](CCC(=O)O)C(N)=O`, the plasma concentration was 0.607 nM (ELISA; female CD-1 mice, blood plasma; subcutaneous, 10 nmol/kg, 24 h).
`Cc1ccc(OCCN(C)C)cc1C(=O)N[C@H](C)c1cc(-c2cccnc2N2CCCC2)nc2ccccc12` has a viability of 71.9% and 99.1% (Vero E6; 31.25 µM).
`CC[C@H](C)[C@H](NC(=O)[C@H](CCCCN)NC(=O)CNC(=O)[C@H](CC(C)C)NC(=O)[C@H](Cc1ccccc1)NC(=O)[C@H](CCCCN)NC(=O)[C@H](CO)NC(=O)[C@H](Cc1ccccc1)NC(=O)[C@H](Cc1c[nH]c2ccccc12)NC(=O)[C@H](CCC(N)=O)NC(=O)[C@@H](NC(=O)[C@H](Cc1ccccc1)NC(=O)CCCCCNC(=O)CN1CCN(CC(=O)O)CCN(CC(=O)O)CCN(CC(=O)O)CC1)C(C)C)C(=O)N[C@@H](CCC(=O)O)C(=O)N1CCC[C@H]1C(=O)N[C@@H](CC(=O)O)C(=O)N[C@H](C(=O)N[C@@H](CO)C(=O)N[C@@H](CCC(N)=O)C(=O)N[C@H](C(=O)N[C@@H](CCC(N)=O)C(=O)N[C@@H](CC(=O)O)C(=O)N1CCC[C@H]1C(=O)N[C@@H](CC(N)=O)C(=O)N[C@@H](CC(=O)O)C(=O)N[C@@H](CCC(N)=O)C(=O)N[C@@H](Cc1ccc(O)cc1)C(=O)N[C@@H](CCC(=O)O)C(=O)N1CCC[C@H]1C(=O)N[C@@H](Cc1ccccc1)C(=O)O)C(C)C)C(C)C` [copper-64 labelled] has a tissue uptake of 1.17 ± 0.3 %ID/g (C57BL/6 mice, male, naive, skeletal muscle; 1 h).
`O=c1[nH]c2ccccc2c(=O)o1`: “degradation rate constant” 2.1 h⁻¹ (chemical stability, HPLC-MS; borate buffered saline; pH 10.2, no N-acetyl-lysine).
For `O=C1NC2(CC2)COc2ncc(F)cc2[C@H]2COCCN2c2ccn3ncc1c3n2`, the basophil percentage was 0.05 ± 0.07% (Sprague-Dawley rats, female, blood; oral, 10 mg/kg/day, end of treatment, 4-week subacute toxicity).
Under “acute toxic concentration”, `CC[C@H](C)[C@H](NC(=O)[C@H](CC(C)C)NC(=O)CNC(=O)[C@H](Cc1c[nH]cn1)NC(=O)[C@@H](NC(=O)[C@H](Cc1c[nH]c2ccccc12)NC(=O)[C@H](CCCCN)NC(=O)CNC(=O)[C@@H](NC(=O)[C@H](Cc1c[nH]cn1)NC(=O)[C@H](Cc1c[nH]cn1)NC(=O)[C@@H](NC(=O)CNC(=O)[C@H](Cc1c[nH]cn1)NC(=O)[C@H](Cc1ccccc1)NC(=O)[C@H](CC(C)C)NC(=O)[C@H](CC(C)C)NC(=O)CNC(=O)[C@H](CC(C)C)NC(=O)[C@@H](N)Cc1ccccc1)C(C)C)C(C)C)[C@@H](C)CC)C(=O)N[C@@H](Cc1c[nH]cn1)C(=O)NCC(=O)N[C@@H](Cc1c[nH]cn1)C(=O)N[C@@H](Cc1c[nH]cn1)C(N)=O` is recorded as 5 µM (zebrafish embryos 4 hpf, E3 medium; 1 h).
`CC(C)C[C@H](NC(=O)[C@H](Cc1ccccc1)NC(=O)CNC(=O)CNC(=O)[C@@H](N)Cc1ccc(O)cc1)C(=O)N[C@@H](CSCB(O)O)C(N)=O` — result for “peptide remaining intact”: 57% (RP-HPLC; PBS; concentration not given, 24 h, pH 7.4, with: ascorbic acid 100 µM).
`CC(C)[C@@H]1NC(=O)CNC(=O)[C@H](CC(N)=O)NC(=O)[C@H](CCCNC(=N)N)NC(=O)[C@H](Cc2ccc(O)cc2)NC(=O)[C@H](C(C)C)NC(=O)[C@@H](NC(=O)[C@@H](NC(=O)[C@H](CC(N)=O)NC(=O)[C@H](Cc2c[nH]c3ccccc23)NC(=O)[C@H](C)NC(=O)[C@H](Cc2ccccc2)NC(=O)CNC(=O)[C@H](CCCCN)NC(=O)[C@H](Cc2ccccc2)NC(=O)[C@H](Cc2ccccc2)NC(=O)[C@H](CCCCN)NC(=O)OCC2c3ccccc3-c3ccccc32)C(C)C)CSSC[C@@H](C(=O)N[C@@H](Cc2c[nH]cn2)C(=O)N[C@@H](CCCNC(=N)N)C(=O)N[C@@H](CCCNC(=N)N)C(=O)N[C@@H](C)C(=O)N[C@@H](CC(N)=O)C(N)=O)NC(=O)[C@H](C(C)C)NC(=O)[C@H](CCCNC(=N)N)NC1=O` has a peptide remaining of 36.9% and 38.7% and 43.8% (HPLC; trypsin buffer; 6.00 h, 37 °C, with: trypsin 1 % w/v).
`CCN(CCCCOc1ccc(CCC(=O)N2CCC(Cc3ccccc3)CC2)cc1OC)Cc1ccccc1` has an excreted amount of 365 ± 163 ng (Sprague-Dawley rats, both sexes, urine; oral gavage, 25 mg/kg, 12 to 24 h).
Under “uptake in small intestine with contents”, `N#[11C]c1ccc(-c2csc(NN=C3CCCC3)n2)cc1` is recorded as 18.6 ± 2.51 %ID/g (C57BL/6 mouse, male; intravenous, 3 MBq, 15 min).
With `CC1(C)C(=O)N(c2ccc(C#N)c(C(F)(F)F)c2)C(=S)N1c1ccc(C(=O)O)c(F)c1` the MRT was 12.5 days (male human, plasma; oral, 40 mg, single dose, fasted).
For `Cc1ccc(OCC(=O)N(Cc2cccs2)c2ccn[nH]2)cc1`, “PCE to total erythrocyte ratio” read 0.64 ± 0.08 (micronucleus; CD-1 mouse Crl:CD-1(ICR), female, bone marrow; oral, 1000 mg/kg/day, 3 days).
`Cc1ccc(OCCN(C)C)cc1C(=O)N[C@H](C)c1cc(-c2cccs2)nc2ccccc12` gave a viability of 4.81% (Vero E6; 31.25 µM).
`N=C(N)NCCC[C@@H](NC(=O)[C@H](N)Cc1c[nH]c2ccccc12)C(=O)N[C@H](CCCCN)C(=O)N[C@H](Cc1c[nH]c2ccccc12)C(=O)N[C@H](CCCNC(=N)N)C(=O)N[C@H](CCCCN)C(=O)N[C@H](Cc1c[nH]c2ccccc12)C(=O)N[C@H](CCCNC(=N)N)C(=O)N[C@H](CCCCN)C(=O)N[C@H](Cc1c[nH]c2ccccc12)C(=O)N[C@H](CCCNC(=N)N)C(=O)N[C@H](CCCCN)C(N)=O` gave a survival of 100% (mouse; intraperitoneal, 20 mg/kg single dose, day 3).

Excerpt of the above:
With `CC1(C)C(=O)N(c2ccc(C#N)c(C(F)(F)F)c2)C(=S)N1c1ccc(C(=O)O)c(F)c1` the MRT was 12.5 days (male human, plasma; oral, 40 mg, single dose, fasted).
